Results collected from several papers.
Each line is one published result; not all experiments were run side by side.
Chain of UniProt Q8NER1 (whole entry, looked up): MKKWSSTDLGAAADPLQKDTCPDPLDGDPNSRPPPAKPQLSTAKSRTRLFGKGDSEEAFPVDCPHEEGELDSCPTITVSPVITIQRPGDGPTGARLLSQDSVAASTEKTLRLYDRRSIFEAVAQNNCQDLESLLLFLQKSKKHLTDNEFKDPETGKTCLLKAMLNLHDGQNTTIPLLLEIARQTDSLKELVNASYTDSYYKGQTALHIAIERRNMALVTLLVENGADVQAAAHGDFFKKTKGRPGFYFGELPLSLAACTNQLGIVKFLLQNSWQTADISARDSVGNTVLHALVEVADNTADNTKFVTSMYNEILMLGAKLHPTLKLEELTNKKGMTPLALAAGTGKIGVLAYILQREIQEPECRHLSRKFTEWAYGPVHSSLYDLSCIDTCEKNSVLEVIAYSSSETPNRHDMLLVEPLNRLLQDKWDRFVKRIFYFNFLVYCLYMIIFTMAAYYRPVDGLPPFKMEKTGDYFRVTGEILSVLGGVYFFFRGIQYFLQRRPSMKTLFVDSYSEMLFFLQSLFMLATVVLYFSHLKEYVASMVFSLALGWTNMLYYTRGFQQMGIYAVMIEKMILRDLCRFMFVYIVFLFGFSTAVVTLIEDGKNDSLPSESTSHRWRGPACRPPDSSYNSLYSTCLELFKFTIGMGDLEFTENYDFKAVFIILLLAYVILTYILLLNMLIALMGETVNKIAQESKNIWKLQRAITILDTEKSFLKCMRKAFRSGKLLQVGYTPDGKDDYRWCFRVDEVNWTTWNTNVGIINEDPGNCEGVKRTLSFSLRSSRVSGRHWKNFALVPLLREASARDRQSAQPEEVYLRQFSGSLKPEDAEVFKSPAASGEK
Chain of UniProt Q15370 (whole entry, looked up): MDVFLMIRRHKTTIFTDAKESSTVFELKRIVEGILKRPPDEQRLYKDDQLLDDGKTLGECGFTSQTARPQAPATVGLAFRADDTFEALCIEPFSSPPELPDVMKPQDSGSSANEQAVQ

SMILES	tested on	assay	test system	conditions	scale	endpoint	result
CC(C)C[C@H](NC(=O)CNC(=O)CNC(=O)CNC(=O)[C@H](Cc1ccc(O)cc1)NC(=O)[C@H](CC(C)C)NC(=O)[C@@H](NC(=O)CNC(=O)[C@H](Cc1ccc(O)cc1)NC(=O)[C@H](CCCCN)NC(=O)[C@H](CC(N)=O)NC(=O)[C@@H](NC(=O)[C@H](CCCCN)NC(=O)[C@H](Cc1c[nH]c2ccccc12)NC(=O)CN)[C@@H](C)O)[C@@H](C)O)C(=O)N[C@@H](CCCCN)C(=O)N[C@@H](CCCCN)C(=O)N[C@@H](CC(C)C)C(=O)N[C@@H](CC(C)C)C(=O)N[C@@H](CC(C)C)C(=O)N[C@@H](CC(C)C)C(=O)N[C@@H](CC(C)C)C(=O)N[C@@H](CCCCN)C(=O)N[C@@H](CCCCN)C(=O)N[C@@H](CC(C)C)C(=O)NCC(=O)O	Staphylococcus aureus		ATCC 25923	with: 6 µM NH4Cl		MIC	16 µg/mL
COc1cc(CCC[P+](c2ccccc2)(c2ccccc2)c2ccccc2)c(OC)c2c1OCO2.[I-]	M14	SRB				LC50	-4.19 log M
CCCCCCCCCC(=O)N[C@@H](Cc1c[nH]c2ccccc12)C(=O)N[C@H](CC(N)=O)C(=O)N[C@@H](CC(=O)O)C(=O)N[C@@H]1C(=O)NCC(=O)N[C@@H](CCCN)C(=O)N[C@@H](CC(=O)O)C(=O)N[C@H](C)C(=O)N[C@@H](CC(=O)O)C(=O)NCC(=O)N[C@H](CO)C(=O)N[C@@H]([C@H](C)CC(=O)O)C(=O)N[C@@H](CC(=O)c2ccccc2N)C(=O)O[C@@H]1C	Staphylococcus aureus	broth microdilution	BR-VRSA strain 880, Mueller-Hinton broth, Mg2+ 10 mg/L	16 h, with: Ca2+ 1.0 mM		MIC	0.5 µg/mL
CC[C@H](C)C[C@H](C)CCCCCCCCC(=O)N[C@H]1C[C@@H](O)[C@@H](NCCN)NC(=O)[C@@H]2[C@@H](O)CCN2C(=O)[C@H]([C@H](O)CCN)NC(=O)[C@H]([C@H](O)[C@@H](O)c2ccc(O)cc2)NC(=O)[C@@H]2C[C@@H](O)CN2C(=O)[C@H]([C@@H](C)O)NC1=O	Clavispora lusitaniae	broth dilution	ATCC 34449	48 h, 37 °C		MIC	1 µg/mL
CC[C@H](C)[C@H](NC(=O)[C@H](Cc1ccccc1)NC(=O)[C@H](CCC(=O)O)NC(=O)[C@H](CCCNC(=N)N)NC(=O)[C@H](C)NC(=O)[C@H](C)NC(=O)[C@H](CCC(N)=O)NC(=O)[C@H](CCC(=O)O)NC(=O)[C@H](CCC(=O)O)NC(=O)[C@H](CC(C)C)NC(=O)[C@H](Cc1ccc(O)cc1)NC(=O)[C@H](CO)NC(=O)[C@H](CO)NC(=O)[C@@H](NC(=O)[C@H](CC(=O)O)NC(=O)[C@H](CO)NC(=O)[C@@H](NC(=O)[C@H](Cc1ccccc1)NC(=O)[C@@H](NC(=O)CNC(=O)[C@H](CCC(=O)O)NC(=O)[C@H](C)NC(=O)CCc1c[nH]cn1)[C@@H](C)O)[C@@H](C)O)C(C)C)C(=O)N[C@@H](C)C(=O)N[C@@H](Cc1c[nH]c2ccccc12)C(=O)N[C@@H](CC(C)C)C(=O)N[C@H](C(=O)N[C@@H](CCCNC(=N)N)C(=O)NCC(=O)N[C@@H](CCCNC(=N)N)C(=O)N[C@@H](CCCCNC(=O)COCCOCCNC(=O)COCCOCCNC(=O)CC[C@H](NC(=O)CCCCCCCCCCCCCCCCC(=O)O)C(=O)O)C(=O)NCC(=O)NCC(=O)N[C@@H](CO)C(=O)N[C@@H](CCCCNc1c(NCCCCCN(O)C(=O)CCC(=O)NCCCCCN(O)C(=O)CCC(=O)NCCCCCN(O)C(C)=O)c(=O)c1=O)C(=O)O)C(C)C [zirconium-89 labelled]			rat, colon	sc, 3 nmol/kg, 4 h, ex vivo		tissue uptake	0.18 %ID/g
CC(C)C[C@H](NC(=O)[C@H](CCCNC(=N)N)NC(=O)[C@H](Cc1c[nH]c2ccccc12)NC(=O)[C@H](CCCNC(=N)N)NC(=O)[C@H](Cc1c[nH]c2ccccc12)NC(=O)[C@H](Cc1c[nH]c2ccccc12)NC(=O)[C@H](Cc1c[nH]c2ccccc12)NC(=O)[C@H](CCCNC(=N)N)NC(=O)[C@H](Cc1c[nH]c2ccccc12)NC(=O)[C@@H](N)CCCNC(=N)N)C(N)=O	Candida albicans	broth microdilution	CGMCC 2.209, RPMI 1640-MOPS	48 h, 30 °C, with: ZnCl2 8 µM		MIC	8 µM
C[C@@H](O)[C@H]1C(=O)N2C(C(=O)O)=C(SCCN=CN)C[C@H]12	Klebsiella pneumoniae		K4, first KPC-180 variant emerged	multistep mutant selection, avibactam 2731/4 mg/L		MIC	512 µg/mL
N=C(N)NCCC[C@H](NC(=O)CN)C(=O)N[C@@H](Cc1c[nH]c2ccccc12)C(=O)N[C@@H](CCCNC(=N)N)C(=O)N[C@@H](Cc1c[nH]c2ccccc12)C(=O)N[C@@H](Cc1c[nH]c2ccccc12)C(=O)N[C@@H](Cc1c[nH]c2ccccc12)C(=O)N[C@@H](CCCNC(=N)N)C(=O)N[C@@H](Cc1c[nH]c2ccccc12)C(=O)N[C@@H](CCCNC(=N)N)C(=O)N[C@@H](Cc1c[nH]c2ccccc12)C(N)=O	Candida albicans	broth microdilution	56452, RPMI 1640-MOPS	48 h, 30 °C		MIC	8 µM
CC[C@H](C)[C@@H]1NC(=O)[C@@H]2CCCN2C(=O)[C@H](CC(C)C)NC(=O)[C@H](CC(C)C)NC(=O)CNC(=O)[C@@H](NC(=O)[C@@H](NC(=O)[C@H](CC(=O)O)NC(=O)CNC(=O)[C@@H](NC(=O)[C@H](C)NC(=O)CNC(=O)[C@H](CCCCN)NC(=O)[C@H](CC(C)C)NC(=O)[C@H](CC(C)C)NC(=O)[C@H](CCCCN)NC(=O)CNC(=O)[C@@H](NC(=O)[C@@H](N)CC(C)C)C(C)C)C(C)C)C(C)C)CSSC[C@@H](C(=O)O)NC1=O		RNA-seq, refers to: Ly6c2 mRNA	mouse traumatic brain injury, frontal cortex and hippocampus	dose not given	baseline: TBI plus compound vs TBI	log2 fold change	-4.02
C[C@@H](O)[C@H](NC(=O)[C@H](Cc1ccccc1)NC(=O)[C@H](Cc1c[nH]c2ccccc12)NC(=O)[C@H](Cc1ccccc1)NC(=O)[C@@H](NC(=O)[C@H](Cc1ccccc1)NC(=O)[C@H](CCCNC(=N)N)NC(=O)[C@@H](N)CCCNC(=N)N)[C@@H](C)O)C(=O)N[C@@H](Cc1ccccc1)C(=O)N[C@@H](CCCNC(=N)N)C(=O)N[C@@H](CCCNC(=N)N)C(N)=O	Candida parapsilosis		CGMCC 2.399	48 h, 37 °C		MIC	2 µM
COc1ccc(N2C(=O)N(c3c(C)cccc3Cl)Cc3cnc(Nc4ccc(C5CCN(C)CC5)cc4OC)nc32)nc1	DYRK1A (Homo sapiens, UniProt Q13627)	kinase activity		0.5 µM		inhibition	5.46%
CC[C@H](C)[C@H](NC(=O)[C@H](CCCCN)NC(=O)[C@@H](NC(=O)[C@H](Cc1ccc(O)cc1)NC(=O)[C@H](CCCCN)NC(=O)[C@H](CCCCN)NC(=O)CNC(=O)[C@H](CCCCN)NC(=O)[C@@H](NC(=O)[C@H](C)NC(=O)[C@H](CC(C)C)NC(=O)[C@H](Cc1c[nH]c2ccccc12)NC(=O)CNC(=O)[C@@H](NC(=O)[C@H](Cc1ccccc1)NC(=O)[C@H](CCCCN)NC(=O)[C@H](CC(C)C)NC(=O)[C@H](Cc1ccccc1)NC(=O)[C@H](C)NC(=O)CNC(=O)[C@@H](N)CCSC)C(C)C)[C@@H](C)O)C(C)C)C(=O)N[C@@H](C)C(=O)N[C@@H](Cc1c[nH]c2ccccc12)C(=O)N[C@@H](CC(=O)O)C(=O)N[C@@H](Cc1c[nH]cn1)C(=O)N[C@@H](CCCCN)C(=O)NCC(=O)N[C@H](C(=O)N[C@H](C(=O)N[C@@H](CCSC)C(=O)N[C@@H](CCCCN)C(=O)N[C@@H](Cc1c[nH]c2ccccc12)C(=O)N[C@@H](CC(C)C)C(=O)N[C@@H](CC(N)=O)C(=O)N[C@@H](C)C(=O)NCC(=O)N[C@@H](CCC(N)=O)C(=O)N[C@H](C(=O)N[C@@H](Cc1ccccc1)C(=O)N[C@H](C(=O)N[C@@H](Cc1c[nH]c2ccccc12)C(=O)N[C@H](C(=O)N[C@@H](Cc1ccc(O)cc1)C(=O)N[C@@H](CCC(=O)O)C(=O)N[C@@H](CCC(N)=O)C(=O)N[C@H](C(=O)N[C@@H](CCCCN)C(=O)N[C@@H](CCCCN)C(=O)N[C@@H](CC(C)C)C(=O)N[C@@H](Cc1c[nH]c2ccccc12)C(=O)N[C@H](C(=O)O)[C@@H](C)O)[C@@H](C)CC)C(C)C)[C@@H](C)O)[C@@H](C)O)[C@@H](C)CC)[C@@H](C)O	Bacillus cereus	broth microdilution		37 °C		MIC	15.6 µg/mL
CC(C)C[C@H](NC(=O)[C@H](Cc1c[nH]c2ccccc12)NC(=O)[C@H](CC(C)C)NC(=O)[C@@H](NC(=O)[C@H](CC(C)C)NC(=O)[C@H](CCCNC(=N)N)NC(=O)[C@@H](N)CCCNC(=N)N)[C@@H](C)O)C(=O)N[C@H](C(=O)N[C@@H](CC(C)C)C(=O)N[C@@H](CCCNC(=N)N)C(=O)N[C@@H](CCCNC(=N)N)C(N)=O)[C@@H](C)O	Candida parapsilosis		CGMCC 2.399	48 h, 37 °C		MIC	4 µM
CC[C@H](C)CCCCC(=O)N[C@@H](CCN)C(=O)N[C@H](C(=O)N[C@@H](CCN)C(=O)N[C@H]1CCNC(=O)[C@H]([C@@H](C)O)NC(=O)[C@H](CCN)NC(=O)[C@H](CCN)NC(=O)[C@H](CC(C)C)NC(=O)[C@@H](CC(C)C)NC(=O)[C@H](CCN)NC1=O)[C@@H](C)O	Moraxella catarrhalis	broth microdilution	BNCC 337550			MIC	> 64 µg/mL
COc1cc(Nc2ncc(F)c(Nc3ccc4c(n3)NC(=O)C(C)(C)O4)n2)cc(OC)c1OC	TRPV1 (Homo sapiens, UniProt Q8NER1)					IC50	> 10 µM
N=C(N)NCCC[C@H](NC(=O)CN)C(=O)N[C@@H](Cc1c[nH]c2ccccc12)C(=O)N[C@@H](CCCNC(=N)N)C(=O)N[C@@H](Cc1c[nH]c2ccccc12)C(=O)N[C@@H](Cc1c[nH]c2ccccc12)C(=O)N[C@@H](Cc1c[nH]c2ccccc12)C(=O)N[C@@H](CCCNC(=N)N)C(=O)N[C@@H](Cc1c[nH]c2ccccc12)C(=O)N[C@@H](CCCNC(=N)N)C(=O)N[C@@H](Cc1ccccc1)C(N)=O	Candida albicans	broth microdilution	alveolar fluid isolate, RPMI 1640-MOPS	48 h, 30 °C		MIC	16 µM
CO[C@H]1/C=C/O[C@@]2(C)Oc3c(C)c(O)c4c(c3C2=O)C2=NC3(CCN(CCn5c([N+](=O)[O-])cnc5C)CC3)NC2=C(NC(=O)/C(C)=C\C=C\[C@H](C)[C@H](O)[C@@H](C)[C@@H](O)[C@@H](C)[C@H](OC(C)=O)[C@@H]1C)C4=O	Helicobacter pylori	agar dilution	metronidazole-resistant rdxA R16S			MIC	≤ 0.002 µg/mL
CC[C@H](C)[C@H](NC(=O)[C@H](C)NC(=O)[C@H](CCCCN)NC(=O)[C@H](CC(C)C)NC(=O)[C@H](C)NC(=O)[C@@H](NC(=O)[C@H](Cc1c[nH]cn1)NC(=O)[C@H](CC(C)C)NC(=O)[C@@H](NC(=O)[C@@H](NC(=O)[C@H](CCCCN)NC(=O)[C@H](C)NC(=O)[C@H](C)NC(=O)[C@H](CO)NC(=O)[C@H](CCCCN)NC(=O)[C@H](Cc1ccccc1)NC(=O)[C@@H](NC(=O)[C@H](CCCCN)NC(=O)[C@H](CC(C)C)NC(=O)[C@H](Cc1ccccc1)NC(=O)[C@H](CO)NC(=O)[C@H](CCCCN)NC(=O)[C@H](Cc1c[nH]c2ccccc12)NC(=O)[C@H](CCCCN)NC(C)=O)[C@@H](C)O)[C@@H](C)O)C(C)C)[C@@H](C)O)C(=O)N[C@@H](CO)C(=O)N[C@@H](CO)C(N)=O	Streptococcus pyogenes		erythromycin-resistant	geometric mean of 19 strains		MIC	23 µg/mL
CC(C)[C@H](NC(=O)[C@H](CCCNC(=N)N)NC(=O)[C@H](Cc1c[nH]c2ccccc12)NC(=O)[C@H](CCCNC(=N)N)NC(=O)[C@H](Cc1c[nH]c2ccccc12)NC(=O)[C@H](Cc1c[nH]c2ccccc12)NC(=O)[C@H](Cc1c[nH]c2ccccc12)NC(=O)[C@H](CCCNC(=N)N)NC(=O)[C@H](Cc1c[nH]c2ccccc12)NC(=O)[C@H](CCCNC(=N)N)NC(=O)CN)C(N)=O	Candida albicans	broth microdilution	SP3931, RPMI 1640-MOPS	48 h, 30 °C		MIC	8 µM
C[C@H]1CN(c2n[nH]c3nc(N[C@H]4CC[C@H](NS(=O)(=O)CCC(F)(F)F)CC4)ncc23)CCO1	Elongin-B (Homo sapiens, UniProt Q15370)	Kinobeads competition, refers to: TCEB2		20 µM, unit not given	baseline: vehicle	remaining binding	1.22
CC(C)[C@H](NC(=O)[C@H](CCCNC(=N)N)NC(=O)[C@H](Cc1c[nH]c2ccccc12)NC(=O)[C@H](CCCNC(=N)N)NC(=O)[C@H](Cc1c[nH]c2ccccc12)NC(=O)[C@H](Cc1c[nH]c2ccccc12)NC(=O)[C@H](Cc1c[nH]c2ccccc12)NC(=O)[C@H](CCCNC(=N)N)NC(=O)[C@H](Cc1c[nH]c2ccccc12)NC(=O)[C@@H](N)CCCNC(=N)N)C(N)=O	Candida albicans	broth microdilution	CGMCC 2.209, RPMI 1640-MOPS	48 h, 30 °C, with: NaCl 150 mM		MIC	32 µM
COc1c(CCC[P+](c2ccccc2)(c2ccccc2)c2ccccc2)cc2c(c1OC)OCO2.[I-]	SK-MEL-5	SRB				LC50	-5.23 log M
